Measurements collected from several papers.
Every numbered part comes from another study and shows a few of its results, in no order.

Sample 1
Target: Sal-like protein 4, full length isoform A (SALL4, Homo sapiens, UniProt Q9UJQ4, residues 1-1053)
Sequence of UniProt Q9UJQ4 (whole entry, looked up): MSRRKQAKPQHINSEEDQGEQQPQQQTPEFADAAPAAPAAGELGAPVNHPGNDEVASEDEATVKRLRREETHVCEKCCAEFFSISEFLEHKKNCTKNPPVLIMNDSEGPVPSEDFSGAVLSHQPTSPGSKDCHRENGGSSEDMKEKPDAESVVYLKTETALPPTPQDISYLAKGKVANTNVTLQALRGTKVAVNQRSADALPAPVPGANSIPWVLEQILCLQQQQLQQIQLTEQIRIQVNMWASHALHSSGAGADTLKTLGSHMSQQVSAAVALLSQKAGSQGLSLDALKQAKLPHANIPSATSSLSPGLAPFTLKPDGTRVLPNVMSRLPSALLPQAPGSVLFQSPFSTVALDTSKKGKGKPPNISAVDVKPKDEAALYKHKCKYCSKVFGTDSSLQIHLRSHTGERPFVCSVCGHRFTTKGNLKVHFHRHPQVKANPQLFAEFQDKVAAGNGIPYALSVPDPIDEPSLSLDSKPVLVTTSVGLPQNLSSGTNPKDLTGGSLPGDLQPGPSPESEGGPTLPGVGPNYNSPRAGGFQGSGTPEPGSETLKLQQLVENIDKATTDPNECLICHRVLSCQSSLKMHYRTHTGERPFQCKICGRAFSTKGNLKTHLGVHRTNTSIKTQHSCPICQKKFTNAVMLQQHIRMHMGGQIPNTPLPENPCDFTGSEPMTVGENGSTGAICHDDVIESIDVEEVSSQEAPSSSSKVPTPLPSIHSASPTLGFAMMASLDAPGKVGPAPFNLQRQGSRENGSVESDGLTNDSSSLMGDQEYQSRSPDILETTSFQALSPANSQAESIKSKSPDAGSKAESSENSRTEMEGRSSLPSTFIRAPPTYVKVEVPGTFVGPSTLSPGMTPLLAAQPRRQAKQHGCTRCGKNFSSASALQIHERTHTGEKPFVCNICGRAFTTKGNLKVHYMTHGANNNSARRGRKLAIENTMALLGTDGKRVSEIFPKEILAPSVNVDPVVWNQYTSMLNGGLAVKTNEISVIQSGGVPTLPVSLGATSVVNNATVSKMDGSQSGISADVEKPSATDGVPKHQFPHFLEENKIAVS
Method: universal PBM
Form: double-stranded DNA, one strand shown
Matrix: in vitro
Tested at: 600 nM
Setting: 8-mer, flanks averaged, mean of replicates
Reading: higher = stronger binding
Endpoint: E-score
TTGTAAAA: 0.27
CAATCCCG: -0.0778
ACGAGACT: 0.0183
GAGCCTGA: -0.195
GGCGGGAC: -0.323
GATAGAGC: -0.0543
ACGAAGTC: 0.0544
ACGCGACT: -0.166
TAACACAA: 0.247
TCGTGAAA: 0.0357
GCGGTCGA: -0.157
GACATAAA: 0.259
CCTTAAAG: 0.0195
AATGCCCA: -0.0864
GTACTCGA: -0.0583
AAAAGGAT: 0.207
CACGTCCA: -0.149
CACCCATC: -0.0122
AACTGTGG: -0.165
CGCGTCCG: -0.209
GCTATGCC: -0.0858
CACGGTTC: -0.255

Sample 2
Target: Fragile X messenger ribonucleoprotein 1, C-terminal low-complexity region (Fmr1, Mus musculus, UniProt P35922)
Method: RNA Bind-n-Seq
Form: RNA
Matrix: in vitro
Tested at: 200 nM
Setting: whole 134-nt RNA, ends assumed
Added: 150 mM KCl
Baseline: input library
Reading: higher = stronger binding
Endpoint: log2 enrichment
Shared flanks, not repeated: GGGAGUUCUACAGUCCGACGAUC … UGGAAUUCUCGGGUGUCAAGG
AGGACGUGCAGAACUUCCUCUCUGACUGCACGAUUCAUGAUGGGGCCGCAGGUGUCCAUUUCAUCUACACUAGAGAGGGCAGGCAGAGUG: 0.572
CCUGUGCUACACAUCGUAUGUACCGAAUCGGGCCCCCCCGGCCCCCCCGGGCCCCCCCGGAAAGUAUUAUGUUACGCCGUUCGGAUCUGC: -0.0046
AAGUCCUGUGCUACACAUCGUAUGUACCGAAUCGGGGAAAAAGGGGUGGGGAGGGGAAAGUAUUAUGUUACGCCGUUCGGAUCUGCACUU: 0.955
UCCGCACACCCGGCCUGUCACCCUGCUUUCCCUGCCUCUACUUGACUUGGAAUUGGCUGAAGACUACACAGGAAUGCAUCGUUCCCACUC: 0.722
CACAGACAACACGCACCCACACAGACACAGAGGGAAGGGGUUGGGAAGGGGACAGGGUGCACAGCAGGGCGGGGUAGGACCCCAGCCCCU: 1.12
UGUGCUACACAUCGUAUGUACCGAAUCGGGGAAAAAGGGGUUUUUUUGGGGAAAAAAAGGGGAAAGUAUUAUGUUACGCCGUUCGGAUCU: 0.112
AAGUCCUGUGCUACACAUCGUAUGUACCGAAUCGGGGAAAGGGGUUUGGGGUGGGGAAAGUAUUAUGUUACGCCGUUCGGAUCUGCACUU: 0.981
ACCAUGCAGGUGGGCAUCUUUGGGAAGUGGGGCAAGGGGGGGAUAGGGAGGGGGGUAACACUUUGGGAACAGGGGGUCCCAGGUCGUUUC: 0.399
UCAAGUCCUGUGCUACACAUCGUAUGUACCGAAUCGGGCCCGGCCCGGGGCCCGGAAAGUAUUAUGUUACGCCGUUCGGAUCUGCACUUC: -0.557
CAAGUCCUGUGCUACACAUCGUAUGUACCGAAUCGGGGUUUGGUUUGGGGUUUGGAAAGUAUUAUGUUACGCCGUUCGGAUCUGCACUUC: -0.0964
UGGGAGGUGGAUUUUGUUUAUUUUUUUAGCUCAUUUCCAGGGGUGGGAAUUUUUUUUAAAUAUGUGUCAUGAAUAAAGUUGUUUUUGAAA: 0.223
UGGGAGGUGGGUUUUGUUUAUUUUUUUAGCUCAUUUCCAGGGGUGGGAAUUUUUUUUUAAUAUGUGUCAUGAAUAAAGUUGUUUUUGAAA: 0.377
UUAGUGAAUGUAUAGAAGGAGUAAAGGUAGAGCACAAUCCUGACCUGUCAGUUACUGUCAGCACCAAAAAAUCCCACCAGACAUGGACCU: -0.0685
UCGGAUGGCUUCGCAUUUCCCCAAUACCCCAUUAAACCGUAUCAUCUGAAGAGGAUCCACAGAGCUGUCUUACAUGGUAAUCUAGAGAAA: -0.629

Sample 3
Target: Prothrombin, mature alpha-thrombin (F2, Homo sapiens, UniProt P00734)
Method: aptamer microarray, sandwich
Form: DNA with 2'F-ANA
Matrix: in vitro
Tested at: 200 nM
Setting: whole 15-mer aptamer, many near background
Added: Cy3 exosite-II aptamer, 400 nM
Reading: higher = stronger binding
Endpoint: mean fluorescence intensity
Sequence: GGTTGGTGTGGTTGG
2'F-ANA at 2 3 7 11 13 15: 689 a.u.
2'F-ANA at 1 2 3 4 6 8 10: 62 a.u.
2'F-ANA at 1 3 6 8 10 11 13 15: 68.9 a.u.
2'F-ANA at 2 4 5 7 8 9 10 11 12 14: 46.7 a.u.
2'F-ANA at 1 4 8 9 10 15: 49.1 a.u.
2'F-ANA at 1 4 6 7 9 13 14: 211 a.u.
2'F-ANA at 1 2 3 5 6 7 8 9 10 13 14: 49.5 a.u.
2'F-ANA at 1 3 4 5 6 7 8 9 12 14: 48.9 a.u.
2'F-ANA at 1 2 3 5 6 8 10 12 15: 54 a.u.
2'F-ANA at 1 2 3 9 11 12: 372 a.u.
2'F-ANA at 1 2 3 9 10 11 12 14: 54 a.u.
2'F-ANA at 4 7 8 11 12: 611 a.u.
2'F-ANA at 1 4 5 7 14: 45.9 a.u.
2'F-ANA at 1 2 7 8 11 12 13 14: 67 a.u.
2'F-ANA at 1 2 3 5 6 8 9 10 11 12 13 14 15: 72.8 a.u.
2'F-ANA at 3 4 5 6 9 10 11 13 14 15: 51 a.u.
2'F-ANA at 4 8 9 10 11 12: 239 a.u.
2'F-ANA at 1 3 6 9 10 13 14 15: 100 a.u.
2'F-ANA at 1 2 3 4 5 8 13: 60.6 a.u.
2'F-ANA at 1 3 4 6 7 8 9 10 11 12 13 14 15: 57.2 a.u.
2'F-ANA at 4 7 9 10 12 15: 117 a.u.
2'F-ANA at 1 2 3 4 6 7 9 12 13 14 15: 70.1 a.u.
2'F-ANA at 1 2 3 4 5 6 8 9 10 11 13: 47.7 a.u.
2'F-ANA at 1 2 3 7 8 12 13 14 15: 115 a.u.
2'F-ANA at 4 8 9 10 12 14: 77.1 a.u.

Sample 4
Target: RNA binding protein fox-1 homolog 2, RRM domain, GST-SBP tag (RBFOX2, Homo sapiens, UniProt O43251-10, residues 100-194)
Method: RNA Bind-n-Seq
Form: RNA
Matrix: in vitro
Tested at: 365 nM
Setting: natural RNA segment, single round, ends assumed
Baseline: no-protein control
Reading: higher = stronger binding
Endpoint: RBNS enrichment (R)
Shared flanks, not repeated: GGGAGUUCUACAGUCCGACGAUC … UGGAAUUCUCGGGUGCCAA
Construct (chain): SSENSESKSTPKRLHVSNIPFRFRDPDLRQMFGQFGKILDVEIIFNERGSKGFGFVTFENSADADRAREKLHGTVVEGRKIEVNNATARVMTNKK
GGUUAAGGAUGUAGUUCCUUUGUAAGGGUGGGCAGGCCUCGUAAGAAAGAUGUAGCAGCAUAUUCACUAUCCGUUAAUCCUUCUUUCUUUGAGGCUGGAACUUGCUCUCU: 0.286
ACUGAGGCAGAGGAGUAAGAGUGGUCCAUACACCCAAAUGCCAGCAAAUUGGCAUCUCAUUCUACCUCUAAACCACUGGGUUGGUAUGGGUAUGAAUGCUCAGAGCUCAC: 0.576
AUCUAAAAUUCUACUUUUAGAGUUGAAACAGAGUAAUAACUUAUCUAACCCUCUUUUCCUACAAAGGAGAAAGAUAAAAGGCACAAAGGUUACCGCCAAGGCCCGUCAGC: 0.231
GCCCUUCCCUGAGCAUCCGACUCUUCCAGCAACAAUUCUGUUGGAUUUAAGGCCAAGGGCCAGUGGGUGGCAUGGGGUGGCACUAAUCUUGUGUGUUGCUUGGACAUUUG: 0.795
UCAUCCUCACCAUCCAUACAUGGGAGAUAUUUAAAGUUUCUAAAGUCGAUCCCACCAGCCCUCGAUGUGCACAGGCAGUGGGUGUCAAGCUCGGGAAGUGGCUGGCUGGC: 0.521
GGAAUGAUGUGGUGAUUUAGAAUGCAGUAUUGGCCAAGUCCAAGUUGUCAACUUAAGCGUCUGUUUACCAAAGACCGGGAACAGGGGCCCAAACAUGUCCAGUCCUCUUC: 0.496
CACAGCCUAGAGUUCAGGAAAGUUAAUCCACACAGAAGCACAAUUUUGUCCUCUUCCAGACACUGUUGCCUCUACCUAGUUAGACAAAUAGGAUUUGACCUACAUUCUGU: 0.345
GAGUAGGGGUGGGGACAAGGUACUUUCCCUCUCUCUGCCUUGUUUAUUUUGUACUGUAAUGAAUGUGAGUCACUCAGCUGCUUACCUGAACAUAACCUUAUGCUGCCCUU: 0.611
CAAACAUGUAUUCUGUGCGAUAACUUGUGCCUGCGACAAGUGUUAAUCUUGGGAUCGUAUUUUUAUAUCAUAUUCACAUACUUGUUUUUUUAAUUGGUGUUAGAUGACAU: 2.05
CUUCCUUUAGCAAAAAUUACUAUAAAGUUCAGGACAGUUUGAAAUAAAACCCAGGAAACAAGAUUAAUGUGAGCAGUUCUCCAAGAUCCUAACUGGUGGGACAUAAACUA: 0.283
AGCUGUCACCUUACUCCCAUCCCAGGAGGCCGUAAGGCCUCCCACCUCUCCCCUGUGACUGCAGCUGCUGAGCCAUAAAGUUGGACCAUAUGACACAAGGCCAAUGGGGA: 0.434
ACAAAUCUCAGAACAGUCUGAAAUACCUUUGCCUGGAUACCUCUGGCUCCUUCAGCAGCUAGAGCUCAGUAUACUAAUGCCCUAUCUUAGUAGAGAUUUCAUAGCUAUUU: 0.347

Sample 5
Target: PABPC1L2, full length, GST fusion (mouse, UniProt A0ABA7IW68)
Method: RNAcompete
Form: RNA
Matrix: in vitro
Tested at: 20 nM
Setting: 7-mer, probes averaged, single round
Baseline: mean of 7-mers
Reading: higher = stronger binding
Endpoint: 7-mer Z-score
Construct (chain): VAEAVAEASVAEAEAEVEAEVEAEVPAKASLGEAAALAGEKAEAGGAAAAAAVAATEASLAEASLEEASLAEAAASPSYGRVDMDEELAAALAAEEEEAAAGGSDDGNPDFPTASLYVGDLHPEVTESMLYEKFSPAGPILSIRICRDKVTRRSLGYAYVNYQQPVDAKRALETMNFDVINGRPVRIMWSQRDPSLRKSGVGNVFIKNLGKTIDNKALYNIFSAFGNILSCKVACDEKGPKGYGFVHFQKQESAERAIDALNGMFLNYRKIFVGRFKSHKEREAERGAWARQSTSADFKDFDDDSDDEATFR
AUCGUCU: -0.391
AACUUGC: -0.0663
GUCUUUA: -0.148
AAGAAGU: 0.35
UGACUCG: -0.242
CCGCUCA: -0.369
UCAGUCG: -0.286
UCACUAC: -0.199
GACAUGA: 0.0424
UGUUAUC: -0.251
CGGUCCG: -0.253
GCUCAGC: -0.197
GUUGCCC: -0.195
GGAAUAU: -0.0446
GUUUGCG: -0.447
AAUUGGU: 0.215
ACGGGCA: 0.321
AAGCCUU: -0.05
CUAAGGA: -0.128
AGUGGAU: 0.108
CUGCCGG: -0.199
UUUCCGU: -0.505

A few entries again (sample 3):
2'F-ANA at 4 7 8 11 12: 611 a.u.
2'F-ANA at 1 4 8 9 10 15: 49.1 a.u.
2'F-ANA at 2 3 7 11 13 15: 689 a.u.
2'F-ANA at 1 2 7 8 11 12 13 14: 67 a.u.
2'F-ANA at 1 2 3 5 6 8 9 10 11 12 13 14 15: 72.8 a.u.
2'F-ANA at 1 3 6 9 10 13 14 15: 100 a.u.
2'F-ANA at 1 4 5 7 14: 45.9 a.u.
2'F-ANA at 3 4 5 6 9 10 11 13 14 15: 51 a.u.
2'F-ANA at 1 4 6 7 9 13 14: 211 a.u.
